Results collected from several papers.
Each line is one published result; not all experiments were run side by side. “And” joins repeats or separate records; there may be more than shown. ± marks the error that the study gave.

| SMILES | target or system | test | test system | conditions | how to read | quantity | result |
| --- | --- | --- | --- | --- | --- | --- | --- |
| C=Cc1c(C)c2cc3nc(c(CC(=O)O)c4[nH]c(cc5nc(cc1[nH]2)C(C)=C5CC)c(C)c4C(=O)O)[C@@H](CCC(=O)O)[C@@H]3C | – | flow cytometry | 4T1 tumour-bearing mice, spleen | dose not given | – | CD8+ T cells | 2.94% and 3.47% and 2.95% and 2.68% |
| CC(=O)Oc1cc2c(s1)CCN(C(C(=O)C1CC1)c1ccccc1F)C2 (stereo not shown) | – | platelet aggregation, light transmittance aggregometry | human, platelet-rich plasma | dose not given, 30 min, IPA above 80 %, together with: TRAP 15 µM | reference: patients | patients with IPA above threshold | 0% |
| CN[C@@H]1COc2c(S(=O)(=O)NC(=O)Nc3c4c(cc5c3CCC5)CCC4)cnn2C1 | – | item: IL-18 | human participants, whole blood ex vivo | 900 mg single dose, 1 h, IL-18, circulating, adjusted for, together with: LPS/ATP | reference: baseline | inhibition | 99.1% |
| O=C(c1ccc(OCCN2CCCCC2)cc1)c1c(-c2ccc(O)cc2)sc2cc(O)ccc12 | Toxoplasma gondii | parasite growth, luciferase reporter | HFF, tachyzoite | 72 h | – | EC90 | 55.8 µM |
| N#Cc1ccc2c(c1)[C@H]1CCCN(C(=O)c3ccc4[nH]cnc4c3)[C@H]1C2 | – | meal tolerance test | human, Phase II trial | 80 mg once daily, day 28, AUC0-2 h, adjusted mean | reference: baseline | glucose AUC change | 1.42 mmol/h/L |
| N#Cc1ccn2c(-c3ccncc3)c(-c3ccc(F)cc3)nc2c1 | – | kinase binding, competitor, MIB/MS competition, item: NIK1 | Candida albicans cell lysate | 1 µM | reference: DMSO | log2 fold change | -0.774 |
| CO[C@H]1CC[C@H](N2C(=O)CNc3ncc(-c4ccc(C(C)(C)O)nc4)nc32)CC1 | – | flow cytometry | stimulated T cells, human, blood | 30 mg single dose, 24 h, median | reference: baseline | p4EBP1 change from baseline | -33.2% |
| COc1cc2nccc(Oc3ccc(NC(=O)NC4CC4)c(Cl)c3)c2cc1C(N)=O | – | item: Ang-2 | human, serum | PK/PD model, point estimate | – | Hill coefficient | 4.27 |
| O=C1Nc2cc3[nH]nc(-c4ccncc4)c3cc2CN1Cc1ccccc1 | – | RECIST v1.1 | human, relapsed or refractory advanced solid tumours | intravenous, 4.8 mg/kg | – | complete response, best response | 0% |
| Cn1cc(Nc2nccc(-c3ccc4c(c3)CN(C3COC3)CC[C@H]4NC(=O)c3cn(C(C)(C)C)nn3)n2)cn1 | – | item: glycolysis I | splenic B cells, mice | 30 mg/kg, IgD-activated in vivo | reference: vehicle, direction not given | pathway activation z-score | -1.34 |
| Cn1cc(-c2ccc(-c3cncc(Cl)c3N3CCC4(CCNC4=O)CC3)cc2)cn1 | COLO 205 | gene expression, microarray, item: PLK2 mRNA | – | concentration not given, 6 h | reference: untreated cells | log2 fold change | 2.11 |
| N#Cc1ccc2c(-c3ccncc3)c(-c3ccc(F)cc3)nn2c1 | – | kinase binding, competitor, MIB/MS competition, item: GIN4 | Candida albicans cell lysate | 100 nM | reference: DMSO | log2 fold change | 0.0953 |
| Cc1noc(C)c1-c1cc(C(O)(c2ccccn2)c2ccccn2)c2nc(C3CC3)[nH]c2c1 | – | item: CCR2 expression | human, peripheral blood | 4 mg, day 1, 1599 study | – | maximum inhibition | 38% |
| CC[C@@H]1[C@H](F)C(=O)N[C@@H]1COc1nccc2cc(C(N)=O)c(OC)cc12 | – | ATP-site probe binding, ActivX profiling, item: PCTAIRE1, PCTAIRE3 | THP-1 cell lysate | 0.04 mM, Lys2 site | – | inhibition | 0.457% |
| CO[C@H]1/C=C/O[C@@]2(C)Oc3c(C)c(O)c4c(O)c(c(/C=N/N5CCN(C)CC5)c(O)c4c3C2=O)NC(=O)/C(C)=C\C=C\[C@H](C)[C@H](O)[C@@H](C)[C@@H](O)[C@@H](C)[C@H](OC(C)=O)[C@@H]1C | – | induction, item: ABCB1 (P-gp) | EpiIntestinal microtissues | 100 µM, 72 h | reference: DMSO | mRNA level | 2.8 fold |
| CC1(C)CCC(c2ccc(Cl)cc2)=C(CN2CCN(c3ccc(C(=O)NS(=O)(=O)c4ccc(N[C@H](CCN5CCOCC5)CSc5ccccc5)c(S(=O)(=O)C(F)(F)F)c4)cc3)CC2)C1 | – | cell killing | canine lymph node CD21+ B cells, dog 33 | 24 h | – | EC50 | 0.228 µM |
| CCCn1cc(C)c2c(=O)[nH]c(-c3cc(S(=O)(=O)N4CCN(CC)CC4)ccc3OCC)nc21 | – | – | supine | concentration not given, 0 to 4 h | reference: baseline | maximum change in diastolic blood pressure | -7.67 ± 4.08 mmHg |
| c1ccc(-c2n[nH]cc2-c2ccnc3ccccc23)nc1 | – | kinase binding, competitor, MIB/MS competition, item: PKH3 | Candida albicans cell lysate | 10 µM | reference: DMSO | log2 fold change | 1.87 |
| C=CCn1c(=O)c2cnc(Nc3ccc(N4CCN(C)CC4)cc3)nc2n1-c1ccc2c(n1)[C@@](O)(CC)CC2 | – | – | MIA PaCa-2, BALB/c nude mice, xenograft | oral, 80 mg/kg once daily, day 21 | reference: vehicle | tumour growth inhibition | 50.1% |
| COc1nc(-c2cc(C)c(N[C@@H](C)c3cc(F)cc(F)c3)nn2)ccc1-n1cnc(C)c1 | – | item: Aβ40 | rat Sprague-Dawley male, brain | oral, 50 mg/kg daily for 9 days, 4 h after dose | reference: vehicle | change in level | 78% |

| SMILES | target or system | test | test system | conditions | how to read | quantity | result |
| --- | --- | --- | --- | --- | --- | --- | --- |
| Cc1n[nH]c2ccc(-c3cc(OC[C@@H](N)Cc4ccccc4)cnc3-c3ccoc3)cc12 | – | kinase binding, competitor, MIB/MS competition, item: KIN3 | Candida albicans cell lysate | 10 µM | reference: DMSO | log2 fold change | -0.586 |
| CCCCC1(CCCC)CN(c2ccccc2)c2cc(SC)c(OCC(=O)N[C@@H](C(=O)NCC(=O)O)c3ccccc3)cc2S(=O)(=O)C1 | – | item: 7α-hydroxy-4-cholesten-3-one | human, plasma | 2.5 mg once daily, day 9 | – | plasma C4 | 38.7 ng/mL |
| Cc1nn(-c2nc3c(F)cc(F)cc3s2)c(O)c1C(c1ccc(C(F)(F)F)cc1)c1c(C)nn(-c2nc3c(F)cc(F)cc3s2)c1O | – | – | mouse, cerulein-induced acute pancreatitis | 25 mg/kg | – | pancreas to body weight ratio | 12.9 mg/g and 12.1 mg/g and 10.6 mg/g and 11.3 mg/g |
| COc1cc2cc(-c3ccc(CC(=O)Nc4cc(C(C)(C)C(F)(F)F)no4)cn3)cnc2cc1OC | – | RECIST v1.1 | human RET fusion-positive NSCLC | 75 mg, phase I | – | best overall response CR | 0% |
| CCN(Cc1nc2c(N)nc3cc(-c4cc[nH]n4)ccc3c2[nH]1)C(C)=O | – | immunohistochemistry, item: NK cells | patients with advanced solid tumours, non-injected tumour lesions | dose not given, monotherapy | reference: baseline | mean fold change | 0.8 |
| CC(C)n1c(C2CCNCC2)nc2c([N+](=O)[O-])c(Br)c(Br)cc21 | – | – | patients with AML, bone marrow | all dose levels | reference: baseline | maximum blast change | 321% |
| NCC(=O)Nc1cncc(-c2nn3c(=O)cc(N4CCNCC4)nc3s2)c1 | – | ADP-induced platelet aggregation, light transmission aggregometry | human, stable CAD on aspirin, ex vivo platelets | subcutaneous, 0.05 mg/kg, 5 min post-dose, mean value, together with: ADP 20 µM | – | inhibition | 19.6% |
| C[C@H]1C[C@H]2CSC(N)=N[C@@]2(c2nc(NC(=O)c3ccc(OC(F)F)cn3)cs2)CO1 | – | item: total Aβ | healthy adults, plasma | 160 mg single dose, 8 h post-dose | reference: placebo | percent change from baseline | -57.4% |
| COc1cc(/C=C/C(=O)CC(=O)/C=C/c2ccc(O)c(OC)c2)ccc1O | – | – | high-fat diet hyperlipidaemic rat | oral, 200 mg/kg daily, 4 weeks | – | plasma HDL-C | 0.97 ± 0.18 mmol/L |
| Nc1ncnc2c1ncn2[C@H]1C[C@@H]2OP(=O)(O)OC[C@H]3O[C@@H](n4cnc5c(N)ncnc54)C[C@@H]3OP(=O)(O)OC[C@H]2O1 | – | – | BALB/c mouse CT26 tumour | intratumoral, 0.5 mg/kg days 9,12,15 | – | complete response rate | 80% |
| CCCCCCNc1nc(NC2CCN(C)CC2)c2cc(OC)c(OC)cc2n1 | Toxoplasma gondii | parasite growth | HFF, bradyzoite, glutamine-induced | – | – | EC90 | 3.56 µM |
| C[C@]12CC[C@@H]3c4ccc(O)cc4CC[C@H]3[C@@H]1CC[C@@H]2O | – | RT-qPCR, item: CO | Arabidopsis thaliana ING1:FLAG seedlings | 20 µM, 4 h after treatment, replicate rep2, unit not given | reference: TUB2 | mRNA level | 0.0417 |
| O=C(O)CNC(=O)Cc1ccccc1 | – | – | ventricular cardiomyocytes, C57BL/6 mouse | dose not given, 0.14 s | – | sarcomere length | 1.68 µm |
| O=C(O)C1=CC(=C(c2ccc(O)c(C(=O)O)c2)c2ccc(O)c(C(=O)O)c2)C=CC1=O | – | immunohistochemistry, item: Ly6G | C57BL/6J mouse MC-38 tumour, tumour necrotic areas | peritumoral, dose not given | reference: vehicle | neutrophil signal | decreased |
| O=C(OC(C(F)(F)F)C(F)(F)F)N1CCN(Cc2cccc(Oc3ccccc3)c2)CC1 | – | PET blocking study | rhesus monkey, brain OCC | 0.01 mg/kg, compound pretreatment, together with: [18F]T-401 tracer | – | k4 | 0.109 min⁻¹ |
| NC(=O)c1cnc2[nH]ccc2c1N[C@@H]1[C@@H]2CC3C[C@H]1C[C@@](O)(C3)C2 | – | flow cytometry | Japanese healthy men, blood | oral, 100 mg twice daily, 72 h after day 7 dose | reference: baseline | CD4+ naive T-cell change | -4.65% |
| O=C1O[C@H]([C@@H](O)CO)C(O)=C1O | – | nitric oxide scavenging | – | 80 µM | – | inhibition | 35.8% |
| COc1ccc(-c2cncc(N[C@@H](C)c3cccc(NC(=O)c4cncc(C)c4)c3)n2)cc1OC | – | item: rno-miR-211-5p | rat SU5416/hypoxia model, lung | dose not given | reference: SU5416/hypoxia vehicle | fold change | 0.696 |
| CN1CCN(c2cc(-c3ccncc3)c(-c3ccc4ccccc4c3)nn2)CC1 | – | – | APP/PS1 transgenic mouse | dose not given | – | amyloid plaque burden | no effect |
| OC(CCN1CCCCC1)(c1ccccc1)C1CC2C=CC1C2 (stereo not shown) | – | resting-state EEG | healthy elderly humans | oral, 2 mg, eyes closed, LS mean | reference: baseline | change in EEG Beta3-power Pz-O1 | 5.7% |

Repeated from above:
| SMILES | target or system | test | test system | conditions | how to read | quantity | result |
| --- | --- | --- | --- | --- | --- | --- | --- |
| O=C(OC(C(F)(F)F)C(F)(F)F)N1CCN(Cc2cccc(Oc3ccccc3)c2)CC1 | – | PET blocking study | rhesus monkey, brain OCC | 0.01 mg/kg, compound pretreatment, together with: [18F]T-401 tracer | – | k4 | 0.109 min⁻¹ |
| O=C(O)CNC(=O)Cc1ccccc1 | – | – | ventricular cardiomyocytes, C57BL/6 mouse | dose not given, 0.14 s | – | sarcomere length | 1.68 µm |
| O=C(c1ccc(OCCN2CCCCC2)cc1)c1c(-c2ccc(O)cc2)sc2cc(O)ccc12 | Toxoplasma gondii | parasite growth, luciferase reporter | HFF, tachyzoite | 72 h | – | EC90 | 55.8 µM |
